Published values of several laboratories.
Protocols differ between the studies behind these lines. “And” joins repeats or separate records; there may be more than shown.
Target: Serine/threonine-protein kinase MARK1 (MARK1, Homo sapiens, UniProt Q9P0L2)

Compound	test	setting	scale	endpoint	value
COc1ccc(O)cc1-c1c[nH]c2ncc(-c3cncc(C(=O)N(C)C)c3)cc12	binding, competition with immobilised ligand	0.2 µM		inhibition	44.9%
COCC12C(=O)NC3C4(C(OC)CC1O)C1CC5(O)C(OC)C(O)C(OC(C)=O)(C1C5OC(=O)c1ccccc1)C3(O)C(OC)C24 (stereo not drawn)	kinase activity, inhibitor, ProQinase kinase profiling	25 µM	reference: control	remaining activity	94% and 90%
Nc1ncc(-c2cc(-c3cnn(CC(F)(F)F)c3)ncc2F)nc1C(=O)NC1CNCC(F)C1 (stereo not drawn)	enzyme activity	1 µM	reference: DMSO control	remaining activity	95.8%
O=C(Cc1ccc(OCc2ccccc2)cc1)NC1(C(=O)O)CCN(C(=O)c2ccc(-c3cccc(Cl)c3)cc2)CC1	enzyme activity, inhibitor	10 µM		activity vs control	115%
C=CC(=O)Nc1cccc(-c2cnc3[nH]cc(C(=O)NC(C)(C)C)c3n2)c1	enzyme activity, inhibitor	0.1 µM		inhibition	51%
O=C=[N][Ru-4]123([n]4c5ccc(O)cc5c5c6c(c7cc(F)c[n+]1c7c54)C(=O)NC6=O)[S+]1CC[S+]2CC[S+]3CC1 (stereo not drawn)	enzyme activity	100 nM, human enzyme, with: 10 µM ATP	reference: untreated	remaining activity	78%
CN1CCN(Cc2ccc(-c3ccc(CO[C@H]4CCC[C@@H]4NC(=O)c4cc(-c5cnn(C)c5)cnc4N)cc3)cc2)CC1	enzyme activity, inhibitor	0.1 µM		inhibition	3%
COc1cc(Nc2nccc(-c3cnn4nc(OC)ccc34)n2)cc(C(F)(F)F)c1	binding, competition with immobilised ligand	1 µM		remaining binding	88%
C=CC(=O)N1CCCC(n2c(=O)c3ncccc3n(Cc3ccc(Oc4ccccc4)cc3)c2=O)C1 (stereo not drawn)	cell-free assay, competition with immobilised ligand	1 µM		remaining binding	90%
Nc1ncc2c(n1)-c1c([nH]c3ccc(C4=CCOCC4)cc13)CCC2	binding, competition with immobilised ligand	1 µM		remaining binding	100%
Cc1cccc(O[C@H]2CCC[C@@H](C(C)CNCc3ccncc3)C2)c1 (relative stereo)	enzyme activity, inhibitor	10 µM		inhibition	-2%
COc1ccc(NC(=O)Nc2ccc3c(c2)C(=O)N(C(C)CO)CC(C)C(CN(C)Cc2ccc4c(c2)OCO4)O3)cc1 (stereo not drawn)	kinase activity, KinaseProfiler	0.03 µM, species human	reference: control	remaining activity	106%
Cc1cnc2nc1Nc1cccc(c1)COC/C=C/COCc1cc(ccc1OCCN1CCOCC1)N2	binding	0.1 µM		remaining binding	97%
COc1c(Cl)cccc1Nc1c(-c2ccncc2C#C[C@@]2(C)CCCN2C(=O)/C=C/CN(C)C)[nH]c2c1C(=O)NCC2	binding, competition with immobilised ligand	3 µM		remaining binding	83%
NC(=O)C[C@H]1CCc2sc3ncnc(O[C@H]4CC[C@H](N5CCOCC5)CC4)c3c21	enzyme activity, inhibitor	10 µM		inhibition	-2%

Repeated from above:
Compound	test	setting	scale	endpoint	value
C=CC(=O)N1CCCC(n2c(=O)c3ncccc3n(Cc3ccc(Oc4ccccc4)cc3)c2=O)C1 (stereo not drawn)	cell-free assay, competition with immobilised ligand	1 µM		remaining binding	90%
O=C(Cc1ccc(OCc2ccccc2)cc1)NC1(C(=O)O)CCN(C(=O)c2ccc(-c3cccc(Cl)c3)cc2)CC1	enzyme activity, inhibitor	10 µM		activity vs control	115%
